Results gathered from unrelated publications.
Every numbered part comes from another study and shows a few of its results, in no order.

Block 1 — technique: RNAcompete; form: RNA; matrix: in vitro; tested at: 20 nM; notes: 7-mer, probes averaged, single round; relative to: mean of 7-mers; reading: higher = stronger binding
Target: PABPC1L2, full length, GST fusion (mouse, UniProt A0ABA7IW68)
Construct (chain): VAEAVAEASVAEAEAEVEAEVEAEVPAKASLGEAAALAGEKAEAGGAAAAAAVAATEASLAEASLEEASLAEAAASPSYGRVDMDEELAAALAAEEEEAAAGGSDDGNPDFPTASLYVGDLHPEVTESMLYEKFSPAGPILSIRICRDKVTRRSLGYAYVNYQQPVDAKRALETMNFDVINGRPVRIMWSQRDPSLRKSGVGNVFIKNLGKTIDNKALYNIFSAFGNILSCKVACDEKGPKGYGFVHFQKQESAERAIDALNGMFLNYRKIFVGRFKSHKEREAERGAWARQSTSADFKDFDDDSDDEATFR
Sequence	7-mer Z-score
ACAUGAA	0.234
GAAGUGC	-0.146
GCGACCG	0.0877
GAACCCA	0.066
UAAAUUA	0.86
UCGUAUG	-0.295
UCCCCAA	-0.237
CCCCGCA	-0.454
GGUAGGC	0.245
UAGGAAC	0.113
GGACCGU	-0.113
CGGCGAA	0.305
CAAGGGC	0.263
GUCCGAG	-0.204
UAGCGCU	-0.324
CCAACUG	-0.175

Block 2 — technique: protein-binding microarray; form: double-stranded DNA, one strand shown; matrix: in vitro; tested at: not given; reading: higher = stronger binding
Target: Max-binding protein MNT, bHLH-zipper, MAX partner unstated (MNT, Homo sapiens, UniProt Q99583, residues 220-300)
Notes: k-mer, scored over probes, only values ≥0.25
Residues (chain): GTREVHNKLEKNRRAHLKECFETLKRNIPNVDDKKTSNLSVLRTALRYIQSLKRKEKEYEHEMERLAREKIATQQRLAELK
Sequence	E-score
CTGCGCCA	0.256
ACACCCCA	0.305
CAGACACG	0.366
CAACGTGG	0.461
AACCACGT	0.46
AGCCCCGC	0.259
AACGTGTG	0.406
ATGTGTTG	0.259
CCCTCACG	0.27
AGCCACGA	0.273
TCACATGA	0.391
CAGGTGTA	0.293
CACGCCCA	0.354
AAGCATGG	0.425
CTCGCACA	0.305
CATGGGAG	0.264
ACATGACG	0.276
CACGCATC	0.313
ACACGCAC	0.365
AGTACCAC	0.309
CATGGCGA	0.266
AATACATG	0.26
GCGTGGCC	0.408
AACTCATG	0.3
ACGCCTCC	0.27

Block 3 — technique: protein binding microarray; form: double-stranded DNA, one strand shown; matrix: in vitro; tested at: not given; relative to: not given; reading: higher = stronger binding
Target: Histone acetyltransferase KAT6A, winged helix 2, GST fusion (KAT6A, Homo sapiens, UniProt Q92794, residues 85-181)
Notes: 8-mer, flanks averaged, mean of 2 arrays, mostly near background
Target sequence (chain): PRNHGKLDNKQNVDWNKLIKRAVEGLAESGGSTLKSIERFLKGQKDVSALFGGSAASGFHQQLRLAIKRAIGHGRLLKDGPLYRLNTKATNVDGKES
Sequence	E-score
AGGTCAAG	-0.0214
AGGCACAA	0.0698
GAATTCGA	0.0689
ATGTGATG	-0.174
ACACAGCG	0.231
CGTACCAA	-5e-06
GCCGAAAC	0.131
AGAGCGCA	-0.0822
CTCCTACC	-0.0169
AGGATTAC	-0.101
CCTAAAAG	-0.182
CGACGTTC	-0.201
CCGTATCA	0.115
ATGGCGGA	0.0725
CGGGCCCA	0.068
ATTGCTGA	0.117
CGAAAGGA	-0.0529
AATCCTAT	-0.0865
CTCTGATA	0.061
AATTGTGC	0.0203
GATCTTAC	-0.0464
ATCTAAAG	0.1
CGTCCGCA	0.0355
AATGTGCA	-0.0805
AAAGATAT	0.0769

Block 4 — technique: RNA Bind-n-Seq; form: RNA; matrix: in vitro; tested at: 365 nM; relative to: no-protein control; reading: higher = stronger binding
Target: RNA binding protein fox-1 homolog 2, RRM domain, GST-SBP tag (RBFOX2, Homo sapiens, UniProt O43251-10, residues 100-194)
Notes: natural RNA segment, single round, ends assumed
All sequences stand within: GGGAGUUCUACAGUCCGACGAUC … UGGAAUUCUCGGGUGCCAA
Residues (chain): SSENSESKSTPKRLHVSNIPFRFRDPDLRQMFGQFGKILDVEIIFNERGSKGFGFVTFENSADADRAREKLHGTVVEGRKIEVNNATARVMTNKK
Sequence	RBNS enrichment (R)
CUUCAUUCUACGUGGAAUACUAGAUCCCGUUUGUUAGCCUUCGUGACUCCGUCCUUGUCUCCUGUAAUAUACUGACCCUGUGUGCAGAGGCGUUUUUGUUCCCUUUUGUU	0.722
AUCCCAGAUGCCCAGAUUCCAGUCCUGGAGUUUUAUUCUCUCAGCUUGAUCCUUUGACCAAGAAGAUCCAGUCCCAAUAUGUCACCUGUGCUUCAUCUUUGGACUAUAUC	0.372
AAAUUAUUCUUGUACAGUUUUAUUUGUACAGUUCAGUGUAACCACCUAUCAUCUUGUUAACACUAGAUUCUUCUGAGAUUCAAAAAGAAAAAUCACUGUCAGAGCUAGCC	0.292
CUUGCUUUUCUGGUAUGUUCUAGGUGUAUUGUGACUUUUACUGUUAUAUUAAUUGCCAAUAUAAGUAAAUAUAGAUUAUAUAUGUAUAGUGUUUCACAAAGCUUAGACCU	0.696
UCCCUCGGAGGACAUCGUCUGUGUCCAGGUCAGAAAGUGGCCCAGGAAGGGGGCAGUUUCUGUCGCGGGUCCGGUGGGGGCGCGGCCGCGGUGCGGUCGGUGCAGCGUGG	0.864
UUACUGAAAAACUGCACAAGAAGGUACCGUGAAUGUAAUUUCCUAGCAGGCCACUCUGCAUCUGUUAUGUCUCCACCGGAAAAAAAAUAAUCAUGUUGGUGUUUUUGCUU	0.81
AAGAGUACAGAGGAGCAAGUUCCCAGAGCAGCAGCCACGGCAUCGUGGCCUGCAGGUGCACCCUCCUCCUCGCCACAGUCAGUCAGUUCCCGUGACAGGAAACGACCUUG	0.165
CAAAAAAAAAUUAAUGGUAGUAAUUGAACAGUGUUUUGCAAUUUGUGAAACAGUGUGCUGUGUUUUGUACAAAGAUUUCACGAAAGGGAGAGUCCUUCUAAACCUAUAUU	0.63
CCCUGGGCCCGGGUUGCUAAGCAUUAAAAGCUUGCCUUUCUCCCUGCCCUUGCUCUGUUUCUGCUCCUCACCGGCUGUCAUUACAUGCUACACUGAGGCUUUAAAAACAC	0.227
UGUUGGUGGGGAAAGGUGUCUUUCUUUCUGCCCCUUCCCCUUAAAUAAUUGUGUUCAUUUUUGUUUUGUUUCCUUGUGUACUCCAGCAUUGGUUAUAGUCAUGGGAAAGG	0.887
GUCUAUACAUGGGUUUCAUUGAUGGUAUCUGUAUCAUCUUGACAAAUCGUGAACUGCUGCUGUAUGGCUAGACUUUGCCUAUUUACUCUGUUAUGCAAACAGUAAUUUUU	0.424
GACCCUGGGGGCUGUGCCCCCAUCUCCUCCCCACCCCAGGUCUAGUGGCCCCACCCUCCAUUCCGGACCCCAUGGGCCCAGCCCCUGCCCAUCUAGUUGGUUUGGGGACC	0.435

Block 5 — technique: RNA Bind-n-Seq; form: RNA; matrix: in vitro; tested at: not given; relative to: input RNA pool; reading: higher = stronger binding
Target: RING finger protein unkempt homolog, zinc fingers 1-6, GST-SBP tag (UNK, Homo sapiens, UniProt Q9C0B0, residues 30-357)
Sequence of UniProt Q9C0B0 (30-357, looked up): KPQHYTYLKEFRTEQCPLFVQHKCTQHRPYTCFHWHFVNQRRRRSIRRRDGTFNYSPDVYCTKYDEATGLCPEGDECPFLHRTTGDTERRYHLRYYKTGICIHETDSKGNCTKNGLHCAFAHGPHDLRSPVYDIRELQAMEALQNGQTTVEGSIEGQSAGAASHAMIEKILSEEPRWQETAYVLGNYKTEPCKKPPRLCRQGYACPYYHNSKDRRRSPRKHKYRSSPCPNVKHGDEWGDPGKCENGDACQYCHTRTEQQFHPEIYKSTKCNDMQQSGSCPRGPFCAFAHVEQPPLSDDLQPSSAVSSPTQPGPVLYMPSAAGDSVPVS
Notes: RNA with constant flanks, human-mouse chimeric sites, ends assumed
All sequences stand within: GGGAGUUCUACAGUCCGACGAUC … CAACAGAGGAUUGAGCAUCA
Sequence	bound/input enrichment [ratio]
ACCUCCCCCUCCCGCCUCACCCCACCCCCGCUUUUUGGAAAGUUUUUGGCGUUUCUUUUCCUUCCCCAGUUAGAAUUAUUACAGUUUCCCCCGCAAGGGUCUAUCGAAGGGCUUGACGGA	9.97
UGUGCCCCACAAGAUCCUACCUGAGUGGCAGCUGAAGUUGACUCCCUCUCCUUGCCUGCCUAGUUUCCCACUGCCCCCCCAUCCCCCAGUGUCGGCUGAGAUGUUGCCUCUGCACGGUUC	1.92
AAAGAACCUCUCUCUGAUGAAGAUGAGGAAGACAAUGAUGAUGUUGAACCUAUUACUGAAUUUCGAUUUGUGCCCAGUGAUAAAUCAGCAUUGGAGGCGAUGUUCACAGCAAUGUGUGAG	0.272
GCAAGAGAUGAUGAGGCGGCAGCUGUUGCCCUUUCCUCUCUCGUUCAUGCUUUGGAUGAGUUAAACAUGGUGGCCAUCGUCCGAUAUGCUUAUGACAAAAGAUCUAAUCCUCAAGUUGGU	0.142
CUGGGUAUCAUCUCUCGUGCUGUUAGACACCUGUUCAAGAGUAUUGAUGAGAAAAAGACCUCAGCGAUUAAAAACGGGCUGCCCCCUCCUGAAUUCAAAGUGAAUGCCCAAUUCUUAGAG	0.274
AACUUCGUGCAUCGGUUUCCCUUUGUAGCUGUUUCAAUUGGCUUCCUUGUGAAUAAAAAGAUAGAAUUUGGAAUUGUGUACAGCUGUGUGGAAGAUAAGAUGUACACUGCCAGAAAAGGG	2.44
CUGUGACCACAAGAUCCUACCUGAGUGGCAGCUGAAGCACUUUUCUUCUCCUUGCCUGAACCCCCCCCUUUUGUUCCCCCAUCCCCCAGUGUCGGCUGAGAUGUUGCCUCUGCACGGUUC	0.642
AUGGAGAAGGAUUCUCUGCCCCGCUUUGUGCGCUCUGAAUUUUAUAAGGAGUUAAUCAAGUAGUCAUUUAGCCAGGCUUCCAAAAGUUGCCCUGUGAGUUGAGUUACAUCCUUUGUAGCA	1.06
GAAUCCUACUCAGGCGGUCCCACAACAACCAAGCUCACAGCAGCAGCAUCUUAGUCACAGUAGGGUAGUUUUGGGGCAAUAUUGCCAGGGUUUUAUUCACAUGCAGGUUUGGAAAAUGUA	1.92
GGGACUGAUUCAUCCCAAGGACAGGCCACCCCAUUUGAUGCCUGGACUGAUGACAGUAUGGAAGGGCCUAGUCAAAAUGUUGAAGCUGAGUCAAUUCAAGAUAAUGCGAGUAUGGAAGAG	0.463
GCUCUUGGGAAUGUAAUCAGCGCCUUGGGAGACAAGAGCAAGAGAGCCACACAUGUCCCUUACAGAGACUCUAAGCUGACAAGACUCUUGCAGGAUUCCCUUGGGGGUAACAGCCAAACC	0.102

Block 6 — technique: universal PBM; form: double-stranded DNA, one strand shown; matrix: in vitro; tested at: not given; reading: higher = stronger binding
Target: Sal-like protein 4, full length isoform B (SALL4, Homo sapiens, UniProt Q9UJQ4-2, residues 1-616)
Notes: 8-mer, flanks averaged, mean of replicates
Sequence	E-score
CCATACGA	0.128
ATTATGCG	0.264
TCATGACA	0.0867
CCGCGGCG	-0.319
GCTCTGAA	-0.0628
GGTACCAA	-0.172
CCAGGGTC	-0.305
AAGGCGAC	-0.169
CGAGGCTC	-0.334
CGGTGGAC	-0.243
ATGTGGAA	0.16
CTGACTCC	-0.196
CATCTTCA	0.0001
AGCTCCTG	-0.193
GTTTTAAA	0.195
ATTCCGCC	-0.144
CCTTTGAA	-0.0187
GAACGGCC	-0.254
CCAGCCGG	-0.32
GAGGCGAA	-0.135
ACAAGAAA	0.21

Repeated from above (block 6):
Sequence	E-score
CCGCGGCG	-0.319
GCTCTGAA	-0.0628
GGTACCAA	-0.172
CCAGGGTC	-0.305
AAGGCGAC	-0.169
CGAGGCTC	-0.334
CGGTGGAC	-0.243
ATGTGGAA	0.16
CTGACTCC	-0.196
CATCTTCA	0.0001
AGCTCCTG	-0.193
GTTTTAAA	0.195
ATTCCGCC	-0.144
CCTTTGAA	-0.0187
GAACGGCC	-0.254
CCAGCCGG	-0.32
GAGGCGAA	-0.135
